Experimental data gathered from unrelated publications.
Numbered parts are unrelated; each lists some results of a single study.
Chain of UniProt Q9BYP7 (whole entry, looked up): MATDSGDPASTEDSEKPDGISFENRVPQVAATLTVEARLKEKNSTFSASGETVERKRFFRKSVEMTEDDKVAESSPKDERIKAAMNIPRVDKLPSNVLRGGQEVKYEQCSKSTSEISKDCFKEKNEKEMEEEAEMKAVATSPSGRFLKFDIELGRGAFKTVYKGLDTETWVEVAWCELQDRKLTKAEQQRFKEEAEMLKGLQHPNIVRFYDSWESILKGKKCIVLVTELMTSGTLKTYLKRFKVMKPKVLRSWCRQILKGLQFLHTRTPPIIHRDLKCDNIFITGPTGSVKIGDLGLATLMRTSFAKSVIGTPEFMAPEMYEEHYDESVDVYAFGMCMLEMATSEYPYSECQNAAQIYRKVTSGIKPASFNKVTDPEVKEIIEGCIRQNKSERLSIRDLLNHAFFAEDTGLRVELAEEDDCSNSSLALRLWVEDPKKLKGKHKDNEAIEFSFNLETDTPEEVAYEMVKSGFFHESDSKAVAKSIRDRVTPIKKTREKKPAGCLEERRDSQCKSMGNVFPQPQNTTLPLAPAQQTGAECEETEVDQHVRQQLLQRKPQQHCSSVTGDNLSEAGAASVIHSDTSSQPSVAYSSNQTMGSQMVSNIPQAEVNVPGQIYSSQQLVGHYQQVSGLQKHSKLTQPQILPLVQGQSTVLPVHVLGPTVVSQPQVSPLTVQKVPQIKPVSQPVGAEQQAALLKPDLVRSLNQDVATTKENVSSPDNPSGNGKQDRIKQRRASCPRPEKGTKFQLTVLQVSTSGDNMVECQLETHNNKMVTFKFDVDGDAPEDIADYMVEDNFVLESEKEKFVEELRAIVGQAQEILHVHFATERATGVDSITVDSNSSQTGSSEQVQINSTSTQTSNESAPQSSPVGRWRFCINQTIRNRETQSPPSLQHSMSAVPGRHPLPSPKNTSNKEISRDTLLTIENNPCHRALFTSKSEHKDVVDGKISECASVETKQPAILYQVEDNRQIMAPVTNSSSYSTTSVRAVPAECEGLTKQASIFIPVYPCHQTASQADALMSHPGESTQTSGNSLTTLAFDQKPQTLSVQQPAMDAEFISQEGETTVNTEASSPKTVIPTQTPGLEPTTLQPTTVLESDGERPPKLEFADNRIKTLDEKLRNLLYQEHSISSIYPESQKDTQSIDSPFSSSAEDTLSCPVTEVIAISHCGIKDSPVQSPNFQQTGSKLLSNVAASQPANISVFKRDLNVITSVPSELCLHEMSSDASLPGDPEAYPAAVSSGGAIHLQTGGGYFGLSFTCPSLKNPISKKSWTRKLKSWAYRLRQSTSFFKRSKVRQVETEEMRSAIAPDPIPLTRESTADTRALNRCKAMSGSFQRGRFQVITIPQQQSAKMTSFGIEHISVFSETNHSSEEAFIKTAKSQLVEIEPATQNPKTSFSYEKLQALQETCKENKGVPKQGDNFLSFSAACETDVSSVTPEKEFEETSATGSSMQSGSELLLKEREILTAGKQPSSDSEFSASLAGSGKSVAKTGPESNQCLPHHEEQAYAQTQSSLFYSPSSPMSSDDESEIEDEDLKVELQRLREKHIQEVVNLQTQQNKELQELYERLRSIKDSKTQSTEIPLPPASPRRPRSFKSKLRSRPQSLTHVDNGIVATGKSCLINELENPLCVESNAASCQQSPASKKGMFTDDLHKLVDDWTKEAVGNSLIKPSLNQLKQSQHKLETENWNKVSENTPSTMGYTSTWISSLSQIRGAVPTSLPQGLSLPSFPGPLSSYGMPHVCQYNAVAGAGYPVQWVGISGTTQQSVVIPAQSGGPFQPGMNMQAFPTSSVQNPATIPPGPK
Chain of UniProt Q8N752 (whole entry, looked up): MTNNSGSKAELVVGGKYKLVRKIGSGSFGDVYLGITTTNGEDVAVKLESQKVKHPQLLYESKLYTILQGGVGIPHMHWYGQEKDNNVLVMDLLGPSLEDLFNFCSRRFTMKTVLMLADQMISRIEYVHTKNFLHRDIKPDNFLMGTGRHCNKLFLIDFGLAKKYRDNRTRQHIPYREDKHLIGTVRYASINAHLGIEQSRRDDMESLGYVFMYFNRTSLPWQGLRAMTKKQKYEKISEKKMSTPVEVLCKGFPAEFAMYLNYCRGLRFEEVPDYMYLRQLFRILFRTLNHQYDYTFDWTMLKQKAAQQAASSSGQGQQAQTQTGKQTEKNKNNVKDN
Chain of UniProt P48730 (whole entry, looked up): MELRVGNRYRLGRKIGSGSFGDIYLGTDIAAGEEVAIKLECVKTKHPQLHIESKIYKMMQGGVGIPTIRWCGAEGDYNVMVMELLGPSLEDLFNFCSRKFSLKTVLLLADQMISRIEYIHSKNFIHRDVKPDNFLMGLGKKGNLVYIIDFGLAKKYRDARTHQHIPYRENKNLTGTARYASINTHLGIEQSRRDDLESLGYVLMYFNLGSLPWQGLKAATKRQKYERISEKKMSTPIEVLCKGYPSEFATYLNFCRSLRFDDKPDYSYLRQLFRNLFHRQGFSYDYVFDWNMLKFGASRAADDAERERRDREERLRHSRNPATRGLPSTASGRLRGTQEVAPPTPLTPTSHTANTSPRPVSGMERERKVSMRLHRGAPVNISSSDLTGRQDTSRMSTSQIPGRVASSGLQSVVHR
Chain of UniProt Q86YV6 (whole entry, looked up): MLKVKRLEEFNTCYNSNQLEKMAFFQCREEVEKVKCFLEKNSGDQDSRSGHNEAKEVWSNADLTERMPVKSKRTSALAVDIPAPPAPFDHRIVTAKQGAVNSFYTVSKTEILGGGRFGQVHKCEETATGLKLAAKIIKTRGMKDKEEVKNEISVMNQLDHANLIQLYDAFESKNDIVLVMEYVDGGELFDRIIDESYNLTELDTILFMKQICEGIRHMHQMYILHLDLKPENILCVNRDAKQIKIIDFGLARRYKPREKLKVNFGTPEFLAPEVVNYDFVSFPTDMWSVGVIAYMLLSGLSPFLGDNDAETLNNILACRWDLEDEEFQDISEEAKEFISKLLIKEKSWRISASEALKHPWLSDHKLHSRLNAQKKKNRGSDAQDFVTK
Chain of UniProt Q86UX6 (whole entry, looked up): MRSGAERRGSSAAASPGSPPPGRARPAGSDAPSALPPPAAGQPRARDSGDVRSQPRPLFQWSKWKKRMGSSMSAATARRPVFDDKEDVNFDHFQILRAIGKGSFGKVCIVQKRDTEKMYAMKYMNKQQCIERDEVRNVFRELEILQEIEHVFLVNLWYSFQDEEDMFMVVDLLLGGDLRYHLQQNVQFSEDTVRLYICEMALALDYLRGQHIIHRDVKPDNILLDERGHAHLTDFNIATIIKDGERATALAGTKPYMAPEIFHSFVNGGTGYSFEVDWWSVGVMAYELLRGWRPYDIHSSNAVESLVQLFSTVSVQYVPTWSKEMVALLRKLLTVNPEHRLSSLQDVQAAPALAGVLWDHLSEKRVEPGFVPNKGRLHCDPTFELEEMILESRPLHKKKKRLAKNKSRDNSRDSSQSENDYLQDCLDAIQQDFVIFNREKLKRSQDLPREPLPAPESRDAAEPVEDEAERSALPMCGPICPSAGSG
Chain of UniProt Q14004 (whole entry, looked up): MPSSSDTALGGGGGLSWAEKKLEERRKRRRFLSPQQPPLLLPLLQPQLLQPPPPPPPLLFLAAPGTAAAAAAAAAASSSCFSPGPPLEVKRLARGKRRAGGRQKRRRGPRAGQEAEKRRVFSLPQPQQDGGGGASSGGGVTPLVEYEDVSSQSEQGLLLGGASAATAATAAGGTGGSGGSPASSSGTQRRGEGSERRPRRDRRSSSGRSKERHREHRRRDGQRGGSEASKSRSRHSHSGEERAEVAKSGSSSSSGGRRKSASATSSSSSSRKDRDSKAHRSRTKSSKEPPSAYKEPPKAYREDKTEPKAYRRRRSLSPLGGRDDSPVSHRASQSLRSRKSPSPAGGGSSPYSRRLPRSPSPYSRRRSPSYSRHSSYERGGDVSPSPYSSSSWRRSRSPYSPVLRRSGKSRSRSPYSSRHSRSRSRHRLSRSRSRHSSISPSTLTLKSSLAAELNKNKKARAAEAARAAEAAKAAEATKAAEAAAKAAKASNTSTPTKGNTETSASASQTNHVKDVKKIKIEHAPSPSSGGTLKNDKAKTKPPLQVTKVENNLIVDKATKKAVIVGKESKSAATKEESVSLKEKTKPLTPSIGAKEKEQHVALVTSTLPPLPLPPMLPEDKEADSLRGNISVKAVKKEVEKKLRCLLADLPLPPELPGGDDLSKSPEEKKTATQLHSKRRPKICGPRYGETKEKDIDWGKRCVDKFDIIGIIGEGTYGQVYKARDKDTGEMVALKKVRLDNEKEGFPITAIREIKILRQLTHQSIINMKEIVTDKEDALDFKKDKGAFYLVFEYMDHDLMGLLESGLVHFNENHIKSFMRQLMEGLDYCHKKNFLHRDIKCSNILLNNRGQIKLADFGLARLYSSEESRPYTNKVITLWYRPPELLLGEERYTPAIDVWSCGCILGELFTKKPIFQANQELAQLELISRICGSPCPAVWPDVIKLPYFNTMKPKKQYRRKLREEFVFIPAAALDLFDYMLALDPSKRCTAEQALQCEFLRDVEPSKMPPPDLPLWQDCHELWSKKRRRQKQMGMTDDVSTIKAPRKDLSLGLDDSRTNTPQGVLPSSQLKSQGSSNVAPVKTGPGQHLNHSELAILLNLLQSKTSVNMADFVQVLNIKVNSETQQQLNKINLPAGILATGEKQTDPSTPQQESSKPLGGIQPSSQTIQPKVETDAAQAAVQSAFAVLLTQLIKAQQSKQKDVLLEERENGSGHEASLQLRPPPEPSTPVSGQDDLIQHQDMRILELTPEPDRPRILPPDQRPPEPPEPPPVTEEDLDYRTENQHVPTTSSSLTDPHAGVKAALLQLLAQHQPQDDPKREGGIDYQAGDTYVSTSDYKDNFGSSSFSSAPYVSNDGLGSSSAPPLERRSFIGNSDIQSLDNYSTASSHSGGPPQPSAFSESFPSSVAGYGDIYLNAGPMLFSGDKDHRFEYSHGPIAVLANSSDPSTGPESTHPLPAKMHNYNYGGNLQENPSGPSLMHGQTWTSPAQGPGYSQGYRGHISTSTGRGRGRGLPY

Study 1
Cell line: 1205Lu melanoma
Compound | IC50
CN(C)CCCN1c2ccccc2Sc2ccccc21 | 36.6 µM
CN(C)CCCN1c2ccccc2CCc2ccccc21 | 42.3 µM
CN(C)CCCN1c2ccccc2Sc2ccc(C(F)(F)F)cc21 | 12.2 µM
CC(CN1c2ccccc2Sc2ccccc21)N(C)C (stereo not drawn) | 33.5 µM
COCCCC/C(=N\OCCN)c1ccc(C(F)(F)F)cc1 | 21.4 µM
CN(C)CCC=C1c2ccccc2C=Cc2ccccc21 | 34.6 µM

Study 2
SMILES: COc1ccc2cc(OCC3(C(=O)O)CN(C(=O)c4ccc(F)cc4)C3)ccc2c1
Concentration: 1 µM
target | assay | remaining binding [%]
STK32C (Homo sapiens, UniProt Q86UX6) | cell-free assay, competition with immobilised ligand | 100
EGFR (Homo sapiens, UniProt P00533, del747-750/T751S) | cell-free assay, competition with immobilised ligand | 100
CSNK1A1L (Homo sapiens, UniProt Q8N752) | cell-free assay, competition with immobilised ligand | 100
WEE1 (Homo sapiens, UniProt P30291) | cell-free assay, competition with immobilised ligand | 100
AAK1 (Homo sapiens, UniProt Q2M2I8) | binding | 100
MET (Homo sapiens, UniProt P08581, Y1235D) | cell-free assay, competition with immobilised ligand | 91
MAPK11 (Homo sapiens, UniProt Q15759) | cell-free assay, competition with immobilised ligand | 78
MAP3K1 (Homo sapiens, UniProt Q13233) | cell-free assay, competition with immobilised ligand | 100
MELK (Homo sapiens, UniProt Q14680) | cell-free assay, competition with immobilised ligand | 86
Tyrosine-protein kinase ABL1, non-phosphorylated (ABL1, Homo sapiens, UniProt P00519, F317L) | cell-free assay, competition with immobilised ligand | 100
MAP3K4 (Homo sapiens, UniProt Q9Y6R4) | cell-free assay, competition with immobilised ligand | 65
MAP3K3 (Homo sapiens, UniProt Q99759) | cell-free assay, competition with immobilised ligand | 97
PIK3CA (Homo sapiens, UniProt P42336) | binding, competition with immobilised ligand | 42
DYRK1B (Homo sapiens, UniProt Q9Y463) | cell-free assay, competition with immobilised ligand | 100
WNK3 (Homo sapiens, UniProt Q9BYP7) | cell-free assay, competition with immobilised ligand | 93
MYLK4 (Homo sapiens, UniProt Q86YV6) | cell-free assay, competition with immobilised ligand | 100
CDK13 (Homo sapiens, UniProt Q14004) | cell-free assay, competition with immobilised ligand | 100
CSNK1D (Homo sapiens, UniProt P48730) | cell-free assay, competition with immobilised ligand | 100

Study 3
SMILES: Cn1cnc2cc3c(Nc4cccc(Br)c4)ncnc3cc21
Read-out: enzyme activity
Action: inhibitor
Concentration: 0.5 µM
Relative to: control
target | remaining activity [%]
NEK2 (Homo sapiens, UniProt P51955) | 103
Cyclin-dependent kinase 5, with p25 (CDK5, Homo sapiens, UniProt Q00535) | 88
STK10 (Homo sapiens, UniProt O94804) | 35.8
IKBKB (Homo sapiens, UniProt O14920) | 104
OXSR1 (Homo sapiens, UniProt O95747) | 94.6
MAPK9 (Homo sapiens, UniProt P45984) | 92.3

Study 4
Cell line: HaCaT
Concentration: 100 µM
Time: 36 h
SMILES | viability
Clc1ccc(C(Cn2ccnc2)OCc2ccc(Sc3ccccc3)cc2)c(Cl)c1 (stereo not drawn) | 8.73%
CO[C@]12C[C@@H](COC(=O)c3cncc(Br)c3)CN(C)[C@@H]1Cc1cn(C)c3cccc2c13 | 5.41%
O=C(O)C1=CO[C@@H](O[C@@H]2O[C@H](CO)[C@@H](O)[C@H](O)[C@H]2O)[C@@H]2C(CO)=CC[C@H]12 | 93.1%
CCCCCCCCOc1ccccc1C(=O)Nc1ccc(C(=O)OCC[N+](C)(CC)CC)cc1 | 6.02%
CN1C[C@@H]2C[C@H]1CN2c1cc2c(cc1F)c(=O)c(C(=O)O)cn2C1CC1 | 37.4%
O=C(/C=C/c1cccc(S(=O)(=O)Nc2ccccc2)c1)NO | 6.99%

Excerpt of the above (study 2):
target | assay | remaining binding [%]
CDK13 (Homo sapiens, UniProt Q14004) | cell-free assay, competition with immobilised ligand | 100
MAP3K1 (Homo sapiens, UniProt Q13233) | cell-free assay, competition with immobilised ligand | 100
MAP3K3 (Homo sapiens, UniProt Q99759) | cell-free assay, competition with immobilised ligand | 97
WEE1 (Homo sapiens, UniProt P30291) | cell-free assay, competition with immobilised ligand | 100
AAK1 (Homo sapiens, UniProt Q2M2I8) | binding | 100
